Experimental data of several laboratories.
A part holds a random share of what one study measured. Substitutions count along the parent as printed.

Series 1
Target: FOS, bZIP domain (human)
Technique: DHFR protein complementation
Sample: yeast
Setting: single substitutions, most at no-binding floor
Relative to: wild-type JUN-FOS pair
Direction: higher = stronger binding
Starting sequence: JUN, bZIP domain (human); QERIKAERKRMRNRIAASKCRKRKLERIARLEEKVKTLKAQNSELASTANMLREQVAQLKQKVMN; partner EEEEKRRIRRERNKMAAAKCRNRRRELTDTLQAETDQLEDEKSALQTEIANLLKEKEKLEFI
`E33F` gave a binding fitness of -0.267 natural log.
With `R53Y` the binding fitness was -0.831 natural log.
With `T37L` the binding fitness was 0.0278 natural log.
The binding fitness of `A29N` is reported as -0.101 natural log.
With `N42P` the binding fitness was -1.37 natural log.
With `A40H` the binding fitness was -0.064 natural log.
`S47V` gave a binding fitness of 0.0932 natural log.
With `A40R` the binding fitness was -0.0237 natural log.
`L31K` has a binding fitness of -0.716 natural log.
`T37D` has a binding fitness of -0.0257 natural log.
With `L45W` the binding fitness was -1.3 natural log.
`K34H` gave a binding fitness of 0.00914 natural log.
`L45V` has a binding fitness of -1.32 natural log.
For `A40V`, the binding fitness was -0.108 natural log.
`L45I` has a binding fitness of -1.07 natural log.
With `N42K` the binding fitness was -0.185 natural log.
`K36L` gave a binding fitness of -0.0737 natural log.

Series 2
Target: RNA binding protein fox-1 homolog 2, RRM domain, GST-SBP tag (RBFOX2, Homo sapiens, UniProt O43251-10, residues 100-194)
Technique: RNA Bind-n-Seq
Molecule type: RNA
Sample: in vitro
Tested at: 365 nM
Setting: natural RNA segment, single round, ends assumed
Relative to: no-protein control
Direction: higher = stronger binding
Target sequence (chain): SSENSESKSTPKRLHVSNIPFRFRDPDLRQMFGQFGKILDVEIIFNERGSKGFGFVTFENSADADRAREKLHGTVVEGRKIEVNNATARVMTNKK
Under “RBNS enrichment (R)”, `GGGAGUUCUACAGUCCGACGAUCCCCCACACAAACCUGUCCCCUCGGUUGUGUUGAAGUCCCCUGGACAGUGGGCAGGGGUGGCAGAGGACACGAGCAGCCACUGCCCGUACCCCCUCUCCUCUCUGUAAGCCUGGAAUUCUCGGGUGCCAA` is recorded as 0.323.
For `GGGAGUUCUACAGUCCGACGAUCUGACCUUUUGGCUUCCACGUCACCCAGAGUGUUAAAAUUUUUACUUAAUUCAUAGCUGUCCUUGAUUUCAUAUUUGUUUGCAUUUAAUUUAUGUUUCUUUGGAUCCUCAUUGGAAUUCUCGGGUGCCAA`, “RBNS enrichment (R)” read 16.2.
For `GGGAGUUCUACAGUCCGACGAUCGUCCAAGAGUAGCCUGUGGAAUCUGAUCAGUUACUUUAAAAAAUGACUCCUUAUUUUUUAAAUGUUUCCACAUUUUUGCUUGUGGAAAGACUGUUUUCAUAUGUUAUACUUGGAAUUCUCGGGUGCCAA`, “RBNS enrichment (R)” read 0.412.
For `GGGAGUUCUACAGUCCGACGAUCAUAGCAGCUGAAUGCAUGCAUGACUUUGAGGGAAGUUAAGACUGGUUUUCUUUUCCCAUCUCUGCACAUUGAAAAACCAAGCCAAGUCUAUUUGCCAAUGAUAGAUCACUUGGAAUUCUCGGGUGCCAA`, “RBNS enrichment (R)” read 3.89.
`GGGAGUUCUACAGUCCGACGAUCUUGCCUGCUUUUGGGCCUAGAUAACGUCACUGUCUACAAAAAGCUAACUGCUUAGGUUUGAAAAGGCAACCAUGUAGAGAAAACUUGACAAUUGGGGCUCAUUGGGAAGUUGGAAUUCUCGGGUGCCAA` — result for “RBNS enrichment (R)”: 0.536.
`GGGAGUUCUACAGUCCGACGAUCUCUUCACCCCUCCCUAGAUCUCACCUAAACAUGCUGUCCCUAAUAAAGCUGGAUAAGAAGCUGCUGUAGUGGGUGUCCCAUGUGCCUGGACGUCUGGGCAUGGGGAUGAGUGGAAUUCUCGGGUGCCAA` — result for “RBNS enrichment (R)”: 0.291.
`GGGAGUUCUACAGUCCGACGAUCGAGAGGGGGAGGCCUGUGUCCUUCCAGCUUCAUUGCACAUGGUCCCCCUCCUGCAACCAGGCUACCUGAAGACCUUUAUGGAGGUGAAAGGGAAACUAAAUUGUUCCCUGUGGAAUUCUCGGGUGCCAA` — result for “RBNS enrichment (R)”: 1.07.
Under “RBNS enrichment (R)”, `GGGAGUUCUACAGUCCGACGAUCCAUCGGAUGUCAGCCCCCUGCGGCCCCAGCUGGAGAUGGAUAUGAGACUAGUCAAGAUGUGAAUGCUAAUUGGAGAGAAAUAUAAUUUUAGGAAGAUGCACAUUGAUGUGUGGAAUUCUCGGGUGCCAA` is recorded as 0.496.
For `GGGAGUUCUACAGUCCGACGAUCCACUACCUGGGACUCUCUGCGAUGUACAUAAUAUUUAAUGCGGUUCCGGCAGCAGCCUUCUCUGGAGGACUGAUACACAGAAGGAAACGAAGGCGCUUGCUGUGGCCGCAUGGAAUUCUCGGGUGCCAA`, “RBNS enrichment (R)” read 0.63.
`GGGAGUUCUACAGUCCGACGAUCCACUUGAGGGGUCUGGGCAGUCCCUCCUCUCCCCAGUGUCCACAGUCACUGAGCCAGACGGUCGGUUGGAACAUGAGACUCGAGGCUGAGCGUGGAUCUGAACACCACAGUGGAAUUCUCGGGUGCCAA`: “RBNS enrichment (R)” 0.717.
`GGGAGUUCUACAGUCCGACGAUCGUUUAUCUAGCAAACGUGACAAUAUUUUUAUGUAUAUAAUGAUUCUAAUCUAAGUUAAUUAAUGUGGUAAUGAUGUUAUUAAGUGUGGAAGCAAAUGCAGUAUAUUAAAGUGGAAUUCUCGGGUGCCAA`: “RBNS enrichment (R)” 0.542.
`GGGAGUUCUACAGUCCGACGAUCGGAUUCAAGCUGUCUUUGCACUAGCUCUAAAGAAGAUUUUCUUCUGGUUUUAGAGAACUAAUUUUGUUUUAGCAUUAAACUGUUGAACUUUUUUUUGUACUUAGAAAACCUGGAAUUCUCGGGUGCCAA`: “RBNS enrichment (R)” 0.398.

Series 3
Target: Histone acetyltransferase KAT6A, both winged helices, GST fusion (KAT6A, Homo sapiens, UniProt Q92794, residues 1-181)
Technique: protein binding microarray
Molecule type: double-stranded DNA, one strand shown
Sample: in vitro
Tested at: not given
Setting: 8-mer, flanks averaged, mean of 2 arrays, mostly near background
Relative to: not given
Direction: higher = stronger binding
Target sequence (chain): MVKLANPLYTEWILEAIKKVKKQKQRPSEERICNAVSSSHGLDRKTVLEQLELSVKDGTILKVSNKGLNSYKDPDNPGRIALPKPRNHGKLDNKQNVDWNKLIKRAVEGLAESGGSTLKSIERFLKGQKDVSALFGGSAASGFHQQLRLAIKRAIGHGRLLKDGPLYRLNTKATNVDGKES
For `ATCTTCAC`, the E-score was -0.0541.
With `ATATCTCC` the E-score was 0.0467.
`GCCCGCGA` has an E-score of 0.204.
With `AATGAAGT` the E-score was -0.101.
With `CCGGAGCA` the E-score was 0.134.
With `CGGGTCCA` the E-score was 0.0751.
`GCCGTGAA` gave an E-score of 0.326.
`AATAAAGT` has an E-score of -0.0774.
The E-score of `ATCTCAAT` is reported as -0.0716.
The E-score of `AACCCAAC` is reported as -0.291.
The E-score of `AAGACTAC` is reported as 0.0025.
The E-score of `AGGGATTA` is reported as -0.163.
For `GACTGCCA`, the E-score was -0.0882.
`CCACTATA` gave an E-score of -0.167.
`CCGTTGAA` gave an E-score of 0.169.
The E-score of `GCAACGAA` is reported as -0.0404.
With `CACACTAA` the E-score was -0.16.
For `GATCAATA`, the E-score was -0.101.
The E-score of `AATGGCTG` is reported as -0.165.
For `GAGACGTA`, the E-score was -0.0851.
For `AAGGGTGA`, the E-score was -0.0854.
`GGGACCAA` has an E-score of -0.124.
`ACTACCCC` has an E-score of -0.182.
For `GAATTCGC`, the E-score was 0.141.
For `TAGCCCAA`, the E-score was -0.124.

Series 4
Target: ABI1, truncated, D143A, DHFR fusion (Arabidopsis thaliana)
Technique: DHFR PCA, deep sequencing
Sample: yeast
Setting: methotrexate growth selection, single substitutions
Added: (+)-ABA 2500 µM
Relative to: wild-type fitted maximum
Direction: higher = stronger binding
Starting sequence: PYL1, truncated, DHFR fusion (Arabidopsis thaliana); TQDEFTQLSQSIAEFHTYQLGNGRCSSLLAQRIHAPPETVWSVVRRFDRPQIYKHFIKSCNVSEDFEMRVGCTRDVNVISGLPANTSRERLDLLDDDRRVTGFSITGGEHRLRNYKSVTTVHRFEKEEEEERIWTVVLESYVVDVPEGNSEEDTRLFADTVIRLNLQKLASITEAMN; partner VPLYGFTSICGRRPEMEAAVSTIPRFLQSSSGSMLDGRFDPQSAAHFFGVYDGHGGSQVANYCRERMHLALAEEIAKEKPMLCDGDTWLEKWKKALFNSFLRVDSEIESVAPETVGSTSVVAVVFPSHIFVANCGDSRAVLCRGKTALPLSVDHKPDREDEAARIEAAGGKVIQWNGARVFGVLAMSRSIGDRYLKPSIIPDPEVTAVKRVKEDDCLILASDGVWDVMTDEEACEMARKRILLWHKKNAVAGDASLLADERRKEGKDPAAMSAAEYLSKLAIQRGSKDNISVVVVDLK
`E151D`: “relative binding score” 95.3%.
Under “relative binding score”, `G108F` is recorded as 57.6%.
`S150L`: “relative binding score” 89.8%.
For `E151Y`, “relative binding score” read 95%.
`V143S`: “relative binding score” 86.1%.
`D144R` — result for “relative binding score”: 84%.
`E67L`: “relative binding score” 95.9%.
Under “relative binding score”, `R99A` is recorded as 94.2%.
For `A13K`, “relative binding score” read 94.1%.
`T160M` — result for “relative binding score”: 97.2%.
Under “relative binding score”, `T101Q` is recorded as 83.6%.
For `L156Y`, “relative binding score” read 96%.
Under “relative binding score”, `Q51W` is recorded as 98.3%.
For `V62H`, “relative binding score” read 80.5%.
For `E38L`, “relative binding score” read 83.6%.
`E130S`: “relative binding score” 103%.
`I12S`: “relative binding score” 78.2%.

Series 5
Target: CCNA2, cyclin fold, Cln2 fusion (human)
Technique: yeast growth competition, sequencing
Sample: yeast
Setting: strong parent motif
Relative to: not given
Direction: higher = stronger binding
Starting sequence: CDKN1C docking peptide (human); TSACRSLFGPVDH; partner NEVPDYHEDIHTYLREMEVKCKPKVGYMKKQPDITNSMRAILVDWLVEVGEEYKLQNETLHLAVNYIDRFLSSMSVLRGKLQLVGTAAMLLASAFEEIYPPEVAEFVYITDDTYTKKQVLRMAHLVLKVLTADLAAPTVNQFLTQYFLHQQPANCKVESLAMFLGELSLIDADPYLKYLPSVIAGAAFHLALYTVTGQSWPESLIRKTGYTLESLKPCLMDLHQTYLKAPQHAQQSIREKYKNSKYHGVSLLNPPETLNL
For `C4A`, “normalised enrichment score” read 2.
For `R5K`, “normalised enrichment score” read 2.08.
`R5A`: “normalised enrichment score” -0.183.
Under “normalised enrichment score”, `G9A` is recorded as 2.9.
Under “normalised enrichment score”, `R5A L7A` is recorded as -0.543.
Under “normalised enrichment score”, `P10A` is recorded as 2.58.
For `V11A`, “normalised enrichment score” read 3.69.
`H13A` — result for “normalised enrichment score”: 3.
`F8L`: “normalised enrichment score” 0.435.

A few entries again (series 4):
Under “relative binding score”, `G108F` is recorded as 57.6%.
For `V62H`, “relative binding score” read 80.5%.
`E151D`: “relative binding score” 95.3%.
Under “relative binding score”, `R99A` is recorded as 94.2%.
Under “relative binding score”, `Q51W` is recorded as 98.3%.
`E130S`: “relative binding score” 103%.
Under “relative binding score”, `T101Q` is recorded as 83.6%.
